Published values pooled from the literature.
Numbered parts are unrelated; each lists some results of a single study. Changes are numbered by the printed parent chain.

Study 1
Target: Ras GTPase-activating protein-binding protein 1, full length (G3BP1, Homo sapiens, UniProt Q13283)
Sequence of UniProt Q13283 (whole entry, looked up): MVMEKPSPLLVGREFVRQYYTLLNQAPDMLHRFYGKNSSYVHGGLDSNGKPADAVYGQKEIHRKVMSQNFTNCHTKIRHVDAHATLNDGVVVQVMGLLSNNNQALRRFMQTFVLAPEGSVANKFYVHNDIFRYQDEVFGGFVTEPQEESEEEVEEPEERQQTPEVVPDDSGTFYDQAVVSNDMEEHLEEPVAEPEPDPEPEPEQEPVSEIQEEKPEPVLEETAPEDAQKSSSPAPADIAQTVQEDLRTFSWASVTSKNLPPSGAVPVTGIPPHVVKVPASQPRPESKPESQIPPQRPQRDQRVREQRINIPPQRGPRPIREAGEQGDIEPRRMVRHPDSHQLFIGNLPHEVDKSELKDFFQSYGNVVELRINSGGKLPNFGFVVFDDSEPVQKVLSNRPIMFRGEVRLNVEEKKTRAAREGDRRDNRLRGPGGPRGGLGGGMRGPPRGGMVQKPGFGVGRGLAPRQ
Technique: RNA Bind-n-Seq
Molecule type: RNA
Medium: in vitro
Concentration: 200 nM
Notes: whole 134-nt RNA, ends assumed
Together with: 150 mM KCl
Relative to: input library
Reading: higher = stronger binding
All sequences stand within: GGGAGUUCUACAGUCCGACGAUC … UGGAAUUCUCGGGUGUCAAGG
| Oligonucleotide | log2 enrichment |
| --- | --- |
| ACCAUGCAGGUGGGCAUCUUUGGGAAGUGGGGCAAGGGGGGGAUAGGGAGGGGGGUAACACUUUGGGAACAGGUGGUCCCAUGUCGUUUC | 1.28 |
| GUCCUGUGCUACACAUCGUAUGUACCGAAUCAAACCCAAACCCCCAAAUUUUUUUAAAAAAGUAUUAUGUUACGCCGUUCGGAUCUGCAC | -0.285 |
| UCCUCAAGUCCUGUGCUACACAUCGUAUGUACCGAAUCGGGUGGGUGGUGGGAAAGUAUUAUGUUACGCCGUUCGGAUCUGCACUUCCAG | 1.14 |
| UGUGCUACACAUCGUAUGUACCGAAUCGGGGUUUUUUUGGGGUUUUUGGGGAAAAAAAGGGGAAAGUAUUAUGUUACGCCGUUCGGAUCU | -0.709 |
| UCCUCAAGUCCUGUGCUACACAUCGUAUGUACCGAAUCGGGUGGGUGGGUGGAAAGUAUUAUGUUACGCCGUUCGGAUCUGCACUUCCAG | 1.64 |
| AAGUCCUGUGCUACACAUCGUAUGUACCGAAUCAAACCCAAACCCCCAAACCCAAAAAAGUAUUAUGUUACGCCGUUCGGAUCUGCACUU | -0.623 |
| AGUCCUGUGCUACACAUCGUAUGUACCGAAUCGGUUUUGGGGUUUUGGGUUUUGGGGAAAGUAUUAUGUUACGCCGUUCGGAUCUGCACU | -0.462 |
| UGCCAGGCCCACCCCCAGGUGUUCCCGCGCCUGGGGGCCCACCCCUGUCCACCGGACCUAUAGUGGACCUGCUCCAGUACAGCCAGAAGG | 0.52 |
| CUGUGCUACACAUCGUAUGUACCGAAUCGGGGUUUUUUUGGUUUUUUUGGGGUUUUUUUGGGAAAGUAUUAUGUUACGCCGUUCGGAUCU | -0.963 |
| CAAGUCCUGUGCUACACAUCGUAUGUACCGAAUCGGGAGGGUUUUUGGGUUUGGGAAAGUAUUAUGUUACGCCGUUCGGAUCUGCACUUC | 0.325 |
| CUCAAGUCCUGUGCUACACAUCGUAUGUACCGAAUCGGCCGGGCCGGGCCGGGAAAGUAUUAUGUUACGCCGUUCGGAUCUGCACUUCCA | -0.474 |
| ACCAUGCAGGUGGGCAUCUUGGGGAAGUGGGGCAAGGGGGGGAUAGGGAGGGGGGUAACACUUUGGGAACAGGUGGUCCCAGGUCGUUUC | 1.53 |
| UCCUGUGCUACACAUCGUAUGUACCGAAUCGGGGAGGGGAAAAAGGGGUUUUUUUGGGGAAAGUAUUAUGUUACGCCGUUCGGAUCUGCA | 0.533 |

Study 2
Target: ABI1, truncated, D143A, DHFR fusion (Arabidopsis thaliana)
Technique: DHFR PCA, deep sequencing
Medium: yeast
Notes: methotrexate growth selection, single substitutions
Together with: (+)-ABA 710 µM
Relative to: wild-type fitted maximum
Reading: higher = stronger binding
Parent: PYL1, truncated, DHFR fusion (Arabidopsis thaliana); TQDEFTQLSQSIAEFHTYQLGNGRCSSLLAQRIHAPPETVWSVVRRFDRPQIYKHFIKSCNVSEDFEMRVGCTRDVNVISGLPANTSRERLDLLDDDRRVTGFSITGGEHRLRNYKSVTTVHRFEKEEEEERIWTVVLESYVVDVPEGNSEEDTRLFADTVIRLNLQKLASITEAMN
| Change | relative binding score [%] |
| --- | --- |
| E127I | 103 |
| Q2H | 102 |
| L94S | 81.8 |
| A30S | 105 |
| S104Y | 63.7 |
| C25M | 88.8 |
| F103L | 55.5 |
| D48K | 62.1 |
| N61G | 94.4 |
| S27T | 84.1 |
| Y53C | 65.7 |
| V142S | 101 |
| F124K | 90.8 |

Study 3
Target: CCNB3, cyclin fold, Cln2 fusion (human)
Technique: yeast growth competition, sequencing
Medium: yeast
Notes: weak parent motif
Relative to: not given
Reading: higher = stronger binding
Parent: CDKN1A docking peptide (human); SKACRRLFGPVDS; partner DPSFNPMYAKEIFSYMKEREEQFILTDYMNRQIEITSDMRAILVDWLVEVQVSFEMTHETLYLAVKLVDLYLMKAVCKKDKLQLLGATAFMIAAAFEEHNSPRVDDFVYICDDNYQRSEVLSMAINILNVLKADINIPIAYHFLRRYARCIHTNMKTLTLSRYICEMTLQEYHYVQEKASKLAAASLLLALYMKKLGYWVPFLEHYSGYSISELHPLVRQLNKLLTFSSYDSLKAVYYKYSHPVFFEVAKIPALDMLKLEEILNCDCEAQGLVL
| Change | normalised enrichment score |
| --- | --- |
| SKACRRLPGPVDS [F8P] | 0.0164 |
| SKACSRLFGPVDS [R5S] | -0.265 |
| SKACRWLFGPVDS [R6W] | 0.508 |
| SKACRRLFGPLDS [V11L] | 0.0862 |
| SKACRLLFGPVDS [R6L] | 0.793 |
| SKACRRLFGDVDS [P10D] | 0.279 |
| SKACRRLFGFVDS [P10F] | 0.179 |
| SKACRRWFGPVDS [L7W] | 0.432 |
| SKAKRRLFGPVDS [C4K] | 0.614 |
| SKACQRLFGPVDS [R5Q] | 0.153 |
| SKACRRLFTPVDS [G9T] | 0.563 |
| AKACRRLFGPVDS [S1A] | 0.676 |
| SKACARLFGPVDS [R5A] | 0.177 |

Further values, each from its own experiment
| Molecule | target | assay | system | setting | how to read | measurement | result |
| --- | --- | --- | --- | --- | --- | --- | --- |
| PhoQ, residues 284 288 289 292 302 303 ASASEQ | PhoP, residues 12 14 15 18 19 QYCSL (Escherichia coli, UniProt P23836) | Sort-seq, refers to: YFP reporter | E. coli | PhoQ-PhoP variant library, together with: 10 µM Mg2+ | relative to: high Mg2+ state, higher = stronger signaling | fold induction | 2.5 |
